Measurements gathered from unrelated publications.
Parts stem from different laboratories: compare values within a part only.

Block 1
Target: RING finger protein unkempt homolog, zinc fingers 1-6, GST-SBP tag (UNK, Homo sapiens, UniProt Q9C0B0, residues 30-357)
Method: RNA Bind-n-Seq
Form: RNA
Medium: in vitro
Tested at: not given
Setting: RNA with constant flanks, human and mouse sites, ends assumed
Reference: input RNA pool
Direction: higher = stronger binding
Constant ends, left off below: GGGAGUUCUACAGUCCGACGAUC … CAACAGAGGAUUGAGCAUCA
Residues (chain): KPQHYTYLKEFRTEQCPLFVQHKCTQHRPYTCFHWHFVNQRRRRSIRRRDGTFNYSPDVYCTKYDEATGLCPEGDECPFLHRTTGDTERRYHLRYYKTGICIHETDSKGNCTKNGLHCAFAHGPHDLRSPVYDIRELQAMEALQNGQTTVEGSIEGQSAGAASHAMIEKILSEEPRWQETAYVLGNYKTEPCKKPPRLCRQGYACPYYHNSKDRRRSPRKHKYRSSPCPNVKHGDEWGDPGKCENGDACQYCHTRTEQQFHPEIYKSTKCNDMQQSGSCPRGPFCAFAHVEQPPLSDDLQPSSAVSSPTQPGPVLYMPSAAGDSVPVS
| Oligonucleotide | bound/input enrichment [ratio] |
| --- | --- |
| CACCUUUGGCUCCAAAGGGAUACUCCUAUCACACACAUCAGUUUUCAUCCCAAGAGACCGAUGCACAUCCUUCUCCAUGAUGCCUACAUGUUCUGCAUCAUUGACAAGUCAUUGCCCCUU | 0.231 |
| CAGACAAUUGCUCGGAAUGCCCUUAAACAGGAAACAGAAGUGGAACUGUACAAUGAAUUCCCUGAACCCAUCAAACUGGACAAGAAUGACCGGGCCAAGGCCUCCGCAGAAAGCUGCAGU | 0.209 |
| GAGUCAUCUGACUGGAUGAAGACUGUUCCAAGUUACAACCAAACAAAUAGCUCCAUGGACUUUAGAAAUUAUAUGAUGAGAGAUGAGACUCUGGAACCACUGCCCAAAAACUGGGAAAUG | 24.1 |
| AAGAAUGAAUUAAAGAACAAAGAAUUGACAUUGGAACAUAUGGAAACAGAGAGGCUUGAGUUGGCUCAGAAACUUAAUGAAAAUUAUGAGGAAGUGAAAUCUAUAACCAAAGAAAGAAAA | 0.285 |
| CAGGUAGGUGUUUCUCUGUUAUGUAAGCAAUAACUUUUUCUGUGUCUUAUGGAGUAUGACUAGCAAUUAUUUAUUUCCAUGCUAGACGGUUCUUUGCAUGUGGGUUCCUUAUAGGUGCAG | 0.825 |
| AAGGGUGAUUACUUCCGGUACCUUGCUGAAGUUGCGUGUGGUGAUGAUCGAAAACAAACGAUAGAUAAUUCCCAAGGAGCUUACCAAGAGGCAUUUGAUAUAAGCAAGAAAGAGAUGCAA | 0.344 |
| GGAGACAAGUGCACCAAACCCUUACCUUAUGAACCUUAUAAGGCCCUCCAUGGGCCCUUGCCUCUAUGUCUUCUUAAAGGUAAGAGGGCUCACUCCAAAUCUCUGGACUACCUCAAUCUA | 0.183 |
| UUCGGUGCCAUUGGCUUCUUCUGGGUUGAGUAAAUUGUCAGAUACUGCUCAUCAUUUGCAAUAGUUUUCCCUGAGUGAGGCUGAAGCCUCAGGUUCCUUCAAAACACGCUAUCUAGAGAG | 0.295 |
| UGUCCUUCCUUUUCCUCUCCUUUCAUGACAAAGCAUCCUUCUUGUUUCCCUUCUCUCUAUGUCGCUAAGUCAGUGGUUCUCAACCUGUGGGUCACAAUCCCUUUGGAGGUUGAAUAACUC | 0.424 |
| CGAGUCCCGGCCACCCGGCGCAGCCCUGGGCCCGGGCCCAGCCAGUCACCCCGCAGCCCGAAACACACGCGGCCAGCGGAGCUGCGGCUGGCACCCUUGACCAGGGUGCUUACGCCACCC | 0.0718 |
| GUUUACGAGGUCACCUCUACCAAGUACACACGCGAUAUUUACAAAGAGCUCCUCAUCUCCUUGGUGGCCUCACUCUUCAUGGGCUUUGGAGUCCUCUUCCUCCUGCUCUGGGUUGGCAUC | 0.17 |

Block 2
Target: RNA binding protein fox-1 homolog 2, RRM domain, GST-SBP tag (RBFOX2, Homo sapiens, UniProt O43251-10, residues 100-194)
Method: RNA Bind-n-Seq
Form: RNA
Medium: in vitro
Tested at: 365 nM
Setting: natural RNA segment, single round, ends assumed
Reference: no-protein control
Direction: higher = stronger binding
Constant ends, left off below: GGGAGUUCUACAGUCCGACGAUC … UGGAAUUCUCGGGUGCCAA
Residues (chain): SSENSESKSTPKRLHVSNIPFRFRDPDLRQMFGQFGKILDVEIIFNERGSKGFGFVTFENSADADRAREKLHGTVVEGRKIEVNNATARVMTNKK
| Oligonucleotide | RBNS enrichment (R) |
| --- | --- |
| AGAAAACAGCAAGCGAUGGCUGAUAAAUCUUAUCUUGCCAGAGGUAGUUUUUGAACAAGAAAAAGAACUUUGUAAAUCAUAUCAUUGGGAAAGUAUUUUCAAUAUUUAAA | 0.683 |
| AUGCCUCAGGAUCUUGUUUCUGACACCAGAAUGCAACAGAUGAGAAGCUUUUUGGUGUGAACUGGAAAAAAAAAAAAGGUGCAUUUUUCUCCGUGAAGGUCUUAGUGUAU | 0.555 |
| UUCCUCCCGCACCCCUCCUCCCCCUGCUUCCUGUGGGAUCAGAGUAAGGCUCCUGUUGGCCAGUAGCUUGUGAUCUGGGACCUCUGGGGCCUCGUGUCUGCCUCACUCCC | 1.42 |
| AGGAGAAGUAAAGGCCACGGAAGGUAUGGUAGUUUCUGGAGUCCUAUCUGAGAACUCACAGAUUGUCUUUGCCUCUCUAGGCAGAAACAGAGCUACCCACUGCAGCGGCC | 0.393 |
| GGGACUUGGCCCCUGCUUGACCCUGGCAGAGGUGGAUGGUGAUUGGGAUAUAGGAAAAGCAGUGGGCAGAGGCCUGACUGACCUGAUAUUCAAUCUGCACAAAGUCCAAG | 0.979 |
| UGUUUUGUACUUUUUAUACUGUUGGAUACUUAUAAUCAAAACUUUACUCUAGGGUAUUGAAUAAAUUUAGUCUUAUUAGAAAAAUAAAAGUUGUCUCAUGACUUUGUUUU | 0.589 |
| AACUAACAAACAUUUGUUUCCAAGCCUGUCAUUAAGAGUCUGCAUCAAGAGAUUUGUCCUCCUUGGGGGACCACUGGAUCAUUCCAGAUUUCUUGUGAUUUUUCUAUUGU | 0.341 |
| CAUAAUAGGUCCUCUUGUCAGAGAUCCUCUACCACAGACAUUAAUAGCUGAGCAGGAGCCACAUGGAUUGAUUGUAUCCACUCACCAUUGACGAUGGCAUUGAGCGUAGC | 0.471 |
| GAAAGGGCAGGCCCAACGGCUGAGAUUGACAUUUCCACUGUUGGUAGAGAGCUGUUAUUUCUAAAGGGGAAACCAGCUUUCUGUUCCAAAUGGAAGUUAGGUGAGGAGUU | 0.475 |
| CCACCUCGCCCUGUGUUUCCAGGCCUGCACGUCUGGUCCUUCAGCUGCACAUGGAACUGCAGGGCAGGCUGGCGGGGGGCCUUCAGAUCUCAGAUGAGACUGCACCCCUU | 0.286 |
| GCUCAUAAAUCAAAGCUCAUCAGUUCCCAUAAAUGCAGUUGUCAAAGAAAAGAUUUGGUUGCCAUAGUCAUAAGCAAUGAUACAUGAAACCAAUGAAAGACAGUACAUGU | 0.265 |
| UGAGCGUUUAAUUUAUUCAGUACCUGUGUUUGUGUGAAUGCGGUGUGUGCAGGCAUCGCAGAUGGGGGUUCUUUCAGUUCAAAAGUGAGAUGUCUGGAGAUCAUAUUUUU | 1.85 |

Block 3
Target: Histone acetyltransferase KAT6A, winged helix 1, GST fusion (KAT6A, Homo sapiens, UniProt Q92794, residues 1-85)
Method: protein binding microarray
Form: double-stranded DNA, one strand shown
Medium: in vitro
Tested at: not given
Setting: 8-mer, flanks averaged, mean of 2 arrays, mostly near background
Reference: not given
Direction: higher = stronger binding
Target sequence (chain): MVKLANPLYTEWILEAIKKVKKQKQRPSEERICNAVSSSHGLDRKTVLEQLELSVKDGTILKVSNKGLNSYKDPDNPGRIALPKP
| Oligonucleotide | E-score |
| --- | --- |
| CGCGAAAG | 0.236 |
| ACTTGTAA | -0.00136 |
| CTTTCAAC | -0.0798 |
| CGGCGCAA | 0.427 |
| GCCCGCCC | 0.424 |
| AGAGTCTA | -0.171 |
| CATTGATA | -0.042 |
| GGATCGCA | 0.00281 |
| CCAATTAG | -0.254 |
| CGACCGAC | 0.191 |
| GCATGATA | -0.224 |
| CAGGCTAC | -0.199 |
| CATAGAAA | -0.16 |
| ATCCATTG | -0.181 |
| AGAACCTC | 0.113 |
| ATCTCCCG | 0.259 |
| ATGAGACG | 0.116 |
| ACTAGCCT | -0.0827 |
| TCAAGTGA | -0.246 |
| AGGGATAA | -0.207 |
| CATTGAGG | -0.167 |

Mixed results
| Molecule | target | assay | test system | conditions | scale | measurement | value |
| --- | --- | --- | --- | --- | --- | --- | --- |
| PhoQ, residues 284 288 289 292 302 303 ASVMEA | PhoP, residues 12 14 15 18 19 ICWRQ (Escherichia coli, UniProt P23836) | Sort-seq, item: YFP reporter | E. coli | PhoQ-PhoP variant library, with: 10 µM Mg2+ | reference: high Mg2+ state, higher = stronger signaling | fold induction | 8.17 |

Excerpt of the above (block 1):
| Oligonucleotide | bound/input enrichment [ratio] |
| --- | --- |
| GUUUACGAGGUCACCUCUACCAAGUACACACGCGAUAUUUACAAAGAGCUCCUCAUCUCCUUGGUGGCCUCACUCUUCAUGGGCUUUGGAGUCCUCUUCCUCCUGCUCUGGGUUGGCAUC | 0.17 |
| CACCUUUGGCUCCAAAGGGAUACUCCUAUCACACACAUCAGUUUUCAUCCCAAGAGACCGAUGCACAUCCUUCUCCAUGAUGCCUACAUGUUCUGCAUCAUUGACAAGUCAUUGCCCCUU | 0.231 |
| CAGGUAGGUGUUUCUCUGUUAUGUAAGCAAUAACUUUUUCUGUGUCUUAUGGAGUAUGACUAGCAAUUAUUUAUUUCCAUGCUAGACGGUUCUUUGCAUGUGGGUUCCUUAUAGGUGCAG | 0.825 |
| GGAGACAAGUGCACCAAACCCUUACCUUAUGAACCUUAUAAGGCCCUCCAUGGGCCCUUGCCUCUAUGUCUUCUUAAAGGUAAGAGGGCUCACUCCAAAUCUCUGGACUACCUCAAUCUA | 0.183 |
| AAGAAUGAAUUAAAGAACAAAGAAUUGACAUUGGAACAUAUGGAAACAGAGAGGCUUGAGUUGGCUCAGAAACUUAAUGAAAAUUAUGAGGAAGUGAAAUCUAUAACCAAAGAAAGAAAA | 0.285 |
| AAGGGUGAUUACUUCCGGUACCUUGCUGAAGUUGCGUGUGGUGAUGAUCGAAAACAAACGAUAGAUAAUUCCCAAGGAGCUUACCAAGAGGCAUUUGAUAUAAGCAAGAAAGAGAUGCAA | 0.344 |
| UUCGGUGCCAUUGGCUUCUUCUGGGUUGAGUAAAUUGUCAGAUACUGCUCAUCAUUUGCAAUAGUUUUCCCUGAGUGAGGCUGAAGCCUCAGGUUCCUUCAAAACACGCUAUCUAGAGAG | 0.295 |
